Measurements gathered from unrelated publications.
Compare with care: the assays were run in different laboratories. Values joined by “and” are separate records of one study, mostly repeats; a detail may differ. ± marks the error that the study gave.
DPP9: Dipeptidyl peptidase 9 (DPP9, Homo sapiens, UniProt Q86TI2)
UniProt Q86TI2, sequence (whole entry, looked up): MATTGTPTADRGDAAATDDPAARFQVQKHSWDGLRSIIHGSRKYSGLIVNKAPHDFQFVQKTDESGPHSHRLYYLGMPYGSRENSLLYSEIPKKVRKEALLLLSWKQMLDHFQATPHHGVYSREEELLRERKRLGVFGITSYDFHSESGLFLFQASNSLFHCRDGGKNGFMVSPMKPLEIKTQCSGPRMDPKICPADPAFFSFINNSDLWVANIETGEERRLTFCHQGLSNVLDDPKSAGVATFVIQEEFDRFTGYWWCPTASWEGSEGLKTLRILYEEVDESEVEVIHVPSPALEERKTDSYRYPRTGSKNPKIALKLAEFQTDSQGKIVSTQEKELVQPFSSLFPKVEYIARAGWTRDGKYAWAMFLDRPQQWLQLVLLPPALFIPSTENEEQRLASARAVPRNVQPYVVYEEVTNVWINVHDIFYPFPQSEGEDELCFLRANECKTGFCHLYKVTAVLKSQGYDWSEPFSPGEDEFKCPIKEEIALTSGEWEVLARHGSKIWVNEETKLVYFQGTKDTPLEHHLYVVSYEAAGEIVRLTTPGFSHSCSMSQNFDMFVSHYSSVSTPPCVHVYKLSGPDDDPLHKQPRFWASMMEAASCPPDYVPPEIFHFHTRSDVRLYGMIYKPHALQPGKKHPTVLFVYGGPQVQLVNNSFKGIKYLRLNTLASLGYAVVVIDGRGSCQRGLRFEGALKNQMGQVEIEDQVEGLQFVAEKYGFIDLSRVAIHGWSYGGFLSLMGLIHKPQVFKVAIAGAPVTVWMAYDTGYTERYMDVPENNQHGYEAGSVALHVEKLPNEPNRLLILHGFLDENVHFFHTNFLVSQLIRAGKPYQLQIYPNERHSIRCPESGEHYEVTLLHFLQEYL
CXCR4: C-X-C chemokine receptor type 4 (CXCR4, Homo sapiens, UniProt P61073)
UniProt P61073, sequence (whole entry, looked up): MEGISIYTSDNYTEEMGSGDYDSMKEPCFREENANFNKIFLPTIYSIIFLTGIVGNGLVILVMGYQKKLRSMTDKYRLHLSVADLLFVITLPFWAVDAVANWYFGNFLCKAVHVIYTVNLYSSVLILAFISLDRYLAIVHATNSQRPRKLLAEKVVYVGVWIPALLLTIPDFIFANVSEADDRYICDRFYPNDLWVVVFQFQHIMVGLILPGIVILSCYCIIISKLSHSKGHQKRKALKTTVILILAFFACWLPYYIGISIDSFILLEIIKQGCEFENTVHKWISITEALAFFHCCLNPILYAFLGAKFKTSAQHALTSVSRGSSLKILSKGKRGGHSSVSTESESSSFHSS
Thymocyte selection-associated high mobility group box protein TOX with KAT7: Thymocyte selection-associated high mobility group box protein TOX, with KAT7 (Homo sapiens, UniProt O94900)
UniProt O94900, sequence (whole entry, looked up): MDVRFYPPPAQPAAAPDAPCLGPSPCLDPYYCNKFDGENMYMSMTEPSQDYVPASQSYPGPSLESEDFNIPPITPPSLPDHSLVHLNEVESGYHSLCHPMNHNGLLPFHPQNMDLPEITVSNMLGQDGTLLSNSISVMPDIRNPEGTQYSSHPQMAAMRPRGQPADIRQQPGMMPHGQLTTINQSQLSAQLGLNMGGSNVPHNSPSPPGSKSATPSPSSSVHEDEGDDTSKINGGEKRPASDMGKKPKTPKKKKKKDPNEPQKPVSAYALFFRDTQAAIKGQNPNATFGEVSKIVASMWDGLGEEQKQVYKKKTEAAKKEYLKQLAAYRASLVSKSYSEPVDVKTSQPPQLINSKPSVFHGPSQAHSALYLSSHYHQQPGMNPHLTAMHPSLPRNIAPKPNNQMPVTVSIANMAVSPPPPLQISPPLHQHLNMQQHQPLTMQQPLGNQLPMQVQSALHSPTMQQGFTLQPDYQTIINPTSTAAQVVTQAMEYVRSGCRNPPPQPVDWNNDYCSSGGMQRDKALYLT
PSMB5: Proteasome Macropain subunit MB1 (PSMB5, Homo sapiens, UniProt P28074)
UniProt P28074, sequence (whole entry, looked up): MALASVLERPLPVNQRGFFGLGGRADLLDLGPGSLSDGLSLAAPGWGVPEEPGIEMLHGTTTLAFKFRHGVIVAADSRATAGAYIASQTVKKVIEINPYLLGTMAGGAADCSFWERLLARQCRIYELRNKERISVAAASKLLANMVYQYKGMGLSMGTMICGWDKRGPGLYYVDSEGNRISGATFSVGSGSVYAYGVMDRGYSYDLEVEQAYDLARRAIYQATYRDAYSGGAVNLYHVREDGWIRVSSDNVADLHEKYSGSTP
UniProt P05556, sequence (whole entry, looked up): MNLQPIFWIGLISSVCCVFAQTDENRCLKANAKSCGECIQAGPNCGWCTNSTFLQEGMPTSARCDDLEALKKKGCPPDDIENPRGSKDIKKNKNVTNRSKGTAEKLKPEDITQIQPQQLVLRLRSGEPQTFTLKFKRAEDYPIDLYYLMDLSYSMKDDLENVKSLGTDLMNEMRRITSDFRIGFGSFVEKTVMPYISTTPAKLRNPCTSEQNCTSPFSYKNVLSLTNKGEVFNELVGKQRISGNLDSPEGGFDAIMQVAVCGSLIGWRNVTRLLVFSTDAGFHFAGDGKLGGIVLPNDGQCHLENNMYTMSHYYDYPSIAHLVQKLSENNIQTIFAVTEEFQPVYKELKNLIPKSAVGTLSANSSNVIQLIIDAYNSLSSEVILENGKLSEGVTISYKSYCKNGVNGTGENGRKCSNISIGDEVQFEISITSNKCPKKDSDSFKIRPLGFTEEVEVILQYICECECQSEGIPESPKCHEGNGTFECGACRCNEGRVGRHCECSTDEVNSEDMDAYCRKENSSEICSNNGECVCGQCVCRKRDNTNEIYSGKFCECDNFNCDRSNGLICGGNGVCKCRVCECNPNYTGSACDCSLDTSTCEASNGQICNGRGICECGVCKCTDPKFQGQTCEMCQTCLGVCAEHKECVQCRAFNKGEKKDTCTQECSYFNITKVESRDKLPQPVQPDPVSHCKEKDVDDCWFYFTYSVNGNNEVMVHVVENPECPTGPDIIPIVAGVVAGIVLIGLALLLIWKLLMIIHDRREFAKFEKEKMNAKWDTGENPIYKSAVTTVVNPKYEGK
UniProt Q9NZQ7, sequence (whole entry, looked up): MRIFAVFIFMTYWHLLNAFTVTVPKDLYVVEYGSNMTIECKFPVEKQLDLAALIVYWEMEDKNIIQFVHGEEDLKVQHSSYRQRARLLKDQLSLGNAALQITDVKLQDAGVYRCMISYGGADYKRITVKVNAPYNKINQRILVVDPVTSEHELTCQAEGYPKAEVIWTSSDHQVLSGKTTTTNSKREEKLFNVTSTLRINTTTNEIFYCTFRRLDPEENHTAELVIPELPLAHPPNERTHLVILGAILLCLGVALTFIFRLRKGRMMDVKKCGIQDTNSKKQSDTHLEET
UniProt Q14145, sequence (whole entry, looked up): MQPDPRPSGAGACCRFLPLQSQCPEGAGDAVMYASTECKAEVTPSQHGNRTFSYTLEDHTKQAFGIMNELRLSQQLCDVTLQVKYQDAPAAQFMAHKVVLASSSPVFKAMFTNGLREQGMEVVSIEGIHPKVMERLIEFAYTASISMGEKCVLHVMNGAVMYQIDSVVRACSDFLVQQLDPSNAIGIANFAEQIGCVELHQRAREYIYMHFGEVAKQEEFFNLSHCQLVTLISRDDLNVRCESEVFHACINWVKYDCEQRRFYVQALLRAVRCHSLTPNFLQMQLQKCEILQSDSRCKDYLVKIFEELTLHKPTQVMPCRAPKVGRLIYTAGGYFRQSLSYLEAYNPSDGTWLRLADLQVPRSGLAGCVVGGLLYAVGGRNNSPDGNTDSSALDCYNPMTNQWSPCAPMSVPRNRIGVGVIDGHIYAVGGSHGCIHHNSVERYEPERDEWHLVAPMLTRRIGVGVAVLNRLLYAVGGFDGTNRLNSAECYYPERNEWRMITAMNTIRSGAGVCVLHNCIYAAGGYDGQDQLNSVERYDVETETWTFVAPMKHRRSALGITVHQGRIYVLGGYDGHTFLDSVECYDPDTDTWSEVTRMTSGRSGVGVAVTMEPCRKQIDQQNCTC
UniProt Q92879, sequence (whole entry, unmodified, looked up): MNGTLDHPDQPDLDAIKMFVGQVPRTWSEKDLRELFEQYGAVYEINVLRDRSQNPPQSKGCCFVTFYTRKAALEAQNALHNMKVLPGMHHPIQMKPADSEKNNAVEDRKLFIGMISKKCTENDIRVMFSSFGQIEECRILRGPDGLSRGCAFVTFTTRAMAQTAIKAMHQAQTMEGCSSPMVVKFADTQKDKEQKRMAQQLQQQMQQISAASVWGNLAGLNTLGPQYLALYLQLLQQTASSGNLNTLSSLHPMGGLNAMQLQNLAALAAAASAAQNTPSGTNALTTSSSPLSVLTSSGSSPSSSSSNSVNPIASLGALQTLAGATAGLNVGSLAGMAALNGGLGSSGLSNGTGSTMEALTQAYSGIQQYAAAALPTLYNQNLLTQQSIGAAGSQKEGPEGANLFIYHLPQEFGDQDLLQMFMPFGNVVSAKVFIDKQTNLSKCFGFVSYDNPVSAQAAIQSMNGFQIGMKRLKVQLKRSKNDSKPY
UniProt P14555, sequence (whole entry, looked up): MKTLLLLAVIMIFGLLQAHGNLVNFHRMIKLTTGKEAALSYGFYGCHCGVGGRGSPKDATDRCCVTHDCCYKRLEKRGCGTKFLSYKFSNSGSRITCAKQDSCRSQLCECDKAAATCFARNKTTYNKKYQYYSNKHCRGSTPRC
UniProt Q9NSA0, sequence (whole entry, looked up): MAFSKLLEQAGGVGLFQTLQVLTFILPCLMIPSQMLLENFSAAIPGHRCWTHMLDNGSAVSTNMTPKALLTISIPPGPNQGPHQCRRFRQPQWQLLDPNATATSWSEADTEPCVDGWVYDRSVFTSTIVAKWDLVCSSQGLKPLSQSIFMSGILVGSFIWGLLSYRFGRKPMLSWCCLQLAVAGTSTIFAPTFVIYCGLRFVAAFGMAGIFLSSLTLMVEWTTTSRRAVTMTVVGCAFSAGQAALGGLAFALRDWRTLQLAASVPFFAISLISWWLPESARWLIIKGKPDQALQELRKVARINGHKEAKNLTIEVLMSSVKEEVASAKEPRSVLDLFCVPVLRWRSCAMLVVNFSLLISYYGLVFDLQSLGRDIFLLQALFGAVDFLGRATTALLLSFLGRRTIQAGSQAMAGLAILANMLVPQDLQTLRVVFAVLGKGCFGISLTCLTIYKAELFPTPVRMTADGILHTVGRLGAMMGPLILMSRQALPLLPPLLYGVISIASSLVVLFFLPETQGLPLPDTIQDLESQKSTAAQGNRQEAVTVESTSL

SMILES	target	test	system	setting	scale	IC50
CCCCCCCCN(Cc1ccc(CNC(=O)OCCOC23CC4CC(C2)CC(C(N)C(=O)N2C(C#N)CC5CC52)(C4)C3)cc1)CC(O)C(O)C(O)C(O)CO (stereo not shown)	DPP9	enzyme activity, inhibitor				0.561 µM
C[S+]([O-])CCC/C(=N\OS(=O)(=O)O)S[C@@H]1O[C@H](CO)[C@@H](O)[C@H](O)[C@H]1O (stereo partly shown)	Tyrosine-protein phosphatase non-receptor type 1 (PTPN1, Homo sapiens, UniProt P18031)	enzyme activity, inhibitor, absorbance				9.17 µM
Nc1ncnc2c1ncn2C1OC(COP(=O)(O)O)C(O)C1O (stereo not shown)	Fructose-1,6-bisphosphatase 1 (Mus musculus, UniProt Q9QXD6)	enzyme activity, inhibitor				13.4 µM
CSCC[C@@H](N)C(=O)N[C@@H](CC(C)C)C(=O)N[C@@H](CCCNC(=N)N)C(=O)N[C@@H](Cc1c[nH]c2ccccc12)C(=O)N[C@@H](CO)C(=O)N[C@@H](CCCNC(=N)N)C(=O)N[C@@H](CCCCN)C(=O)N[C@@H](CCSC)C(=O)N1CCC[C@H]1C(=O)N[C@@H](CS)C(=O)N[C@H](C(=O)N[C@@H](CO)C(=O)O)C(C)C	CXCR4	ligand displacement in cells				0.312 µM
CN(CB(O)O)C(=S)[C@@H](N)CCC(=O)O	DPP9	enzyme activity, inhibitor, fluorescence				11 µM
Cc1n[nH]c(S)n1	CUGBP Elav-like family member 1 (CELF1, Homo sapiens, UniProt Q92879, del215-384)	CELF1-RNA binding, inhibitor, fluorescence polarization		20 nM CELF1, together with: 10 nM RNA		1.28 ± 0.28 µM
Fc1ccc(Nc2nc(NC3CCCCC3)c3cc(C(F)(F)F)ccc3n2)cc1F	Beta-2 adrenergic receptor (ADRB2, Homo sapiens, UniProt P07550, I153L)	β-arrestin2 recruitment, antagonist, BRET	HEK293	mutant I153L, together with: isoprenaline 1 µM		0.398 µM
O=C(NS(=O)(=O)c1cccs1)c1cc2ccccc2n1Cc1ccc(Br)c2ccccc12	Solute carrier family 22 member 11 (SLC22A11, Homo sapiens, UniProt Q9NSA0)	transporter uptake, inhibitor				6.08 µM
O=C1c2cccc3cccc(c23)C(=O)N1Cc1nc2ccccc2[nH]1	Kelch-like ECH-associated protein 1 (KEAP1, Homo sapiens, UniProt Q14145)	enzyme activity, inhibitor, fluorescence				0.0367 µM
Oc1cc(NCCCNCc2cc(Cl)cc(Cl)c2)nc2ccccc12	Methionyl-tRNA synthetase, putative (Trypanosoma brucei brucei, UniProt Q38C91)	enzyme activity, inhibitor				< 0.01 µM
N#Cc1c(N)nc2c(c1-c1ccccc1)Cc1cc(O)ccc1-2	Thymocyte selection-associated high mobility group box protein TOX with KAT7	TOX-KAT7 binding, inhibitor, ELISA			no inhibition at 10 µM	> 10 µM
COCCN(C)C(C)C(=O)NC(Cc1ccc(-c2ccccc2)cc1)B(O)O (stereo not shown)	20S proteasome beta subunits, part β2 subunit (Plasmodium falciparum, UniProt Q8I261+Q8I6T3)	β2 activity, inhibitor		together with: Ac-WLR-AMC		> 10 µM
Cc1nc2ccc(Br)cc2c(=O)n1N	Phospholipase A2, membrane associated (Homo sapiens, UniProt P14555)	enzyme activity, inhibitor, colorimetric				22.1 ± 2.23 µM
CCc1noc(CN(C)Cc2cn(-c3ccccc3)nc2-c2ccc(Cl)cc2)n1	CXCR4	β-arrestin recruitment, antagonist				16 µM
CC(C)C[C@H](NC(=O)[C@H](Cc1ccc(CN)cc1)NC(=O)[C@H](Cc1ccccc1)N=[N+]=[N-])C(=O)N[C@@H](CC1CC2CCC1C2)C(=O)[C@@]1(C)CO1 (stereo in doubt)	PSMB5	competitive ABPP	Raji cell lysate			6.28 µM
O=C(Nc1cccc(C(F)(F)F)c1)Nc1ccccc1O	SRSF protein kinase 3 (SRPK3, Homo sapiens, UniProt Q9UPE1)	enzyme activity, inhibitor, FRET				5 µM
CC(C)[C@@H]1NC(=O)[C@@H]2CCCN2C(=O)[C@H](CCCCN)NC(=O)[C@H](Cc2ccccc2)NC(=O)[C@H](Cc2ccccc2)NC(=O)[C@H](CC(=O)O)NC(=O)[C@H](CCC(=O)O)NC(=O)[C@H](Cc2ccc(O)cc2)NC(=O)[C@H](CC(=O)O)NC(=O)[C@H](CCC(=O)O)NC(=O)[C@H](CC(=O)O)NC(=O)[C@H](CCC(=O)O)NC(=O)[C@H](Cc2ccc(O)cc2)NC(=O)CSC[C@@H](C(=O)N[C@@H](Cc2ccc(O)cc2)C(=O)N[C@@H](Cc2ccccc2)C(N)=O)NC(=O)[C@H]([C@@H](C)O)NC1=O	C-C motif chemokine 2 (CCL2, Homo sapiens, UniProt P13500)	chemokine binding, flow cytometry	THP-1	together with: fluorescent CCL2 1.2 nM		6.86 µM
Cc1nc(-c2c[nH]c(C(=O)Nc3ncccc3O)c2)cs1	Trypsin-3 (Homo sapiens, UniProt P35030)	binding, microscale thermophoresis				135 ± 3.2 µM
CC1CCN(C(=O)c2cccc(NC(=O)Nc3ccc(Cl)cc3)c2)CC1	Penicillin-binding protein 4 (Staphylococcus aureus, UniProt P72355)	Bocillin-FL binding, gel densitometry		together with: Bocillin-FL 40 µM		1000 µM
Cc1nn(-c2cccc(N)c2)c(=O)c2cnc(Nc3ccc(N4CCNCC4)cc3)nc12	cAMP-dependent protein kinase catalytic subunit alpha (PRKACA, Homo sapiens, UniProt P17612)	enzyme activity, inhibitor				> 10 µM
OB1c2sccc2C=NN1Cc1ccccc1	Prothrombin (F2, Homo sapiens, UniProt P00734)	enzyme activity, inhibitor				> 100 µM
C/C=C/C(=O)Nc1ccc2nc(NCCCCCN(C)C)nc(NCCCCCCN(C)C)c2c1	Histone-lysine N-methyltransferase SETDB1 (SETDB1, Homo sapiens, UniProt Q15047)	enzyme activity, inhibitor				165 µM and 105 µM and 123 µM
N#Cc1c(N)nc2c(c1-c1ccc[nH]1)Cc1cc(O)ccc1-2	Thymocyte selection-associated high mobility group box protein TOX with KAT7	TOX-KAT7 binding, inhibitor, ELISA			no inhibition at 10 µM	> 10 µM
CNC(=S)NCCCC[C@H](NS(=O)(=O)c1ccc(C(=O)NCc2cn(CCCNc3ccc([N+](=O)[O-])c4nonc34)nn2)cc1)C(=O)N[C@@H](CCCNC(=N)N)C(=O)N[C@@H](CC1CCCCC1)C(N)=O	NAD-dependent protein deacetylase sirtuin-1 (SIRT1, Homo sapiens, UniProt Q96EB6)	enzyme activity, inhibitor, fluorescence				0.11 µM
O=C(CNC(=O)c1cccc(NC2=NCC(F)(F)CN2)c1)NC[C@H](NC(=O)c1c(Cl)cc(-c2ccccc2)cc1Cl)C(=O)O	Integrin alpha-5/beta-1 (Homo sapiens, UniProt P05556+P08648)	cell adhesion	SW480	together with: fibronectin		0.0004 to 0.0005 µM
CC(C)C[C@H](NC(=O)[C@H](Cc1ccc(CN)cc1)NC(=O)[C@H](Cc1ccccc1)N=[N+]=[N-])C(=O)N[C@@H](CC1CCC(C)CC1)C(=O)[C@@]1(C)CO1 (stereo partly shown)	PSMB5	competitive ABPP	Raji cell lysate			0.145 µM
Cc1nn(-c2ccc(S(N)(=O)=O)cc2)c(C)c1CCC(=O)Nc1ccc(-c2ccc[nH]2)cc1	Carbonic anhydrase 9 (CA9, Homo sapiens, UniProt Q16790)	enzyme activity, inhibitor				0.0151 µM
Cc1c(COc2cc(OCc3cccc(C#N)c3)c(CN3CCCC[C@@H]3C(=O)O)cc2Cl)cccc1-c1cccc(OCCCCCC(=O)NO)c1	Programmed cell death 1 ligand 1, with PD-1 (CD274, Homo sapiens, UniProt Q9NZQ7)	PD-1/PD-L1 binding, inhibitor, HTRF				0.0522 µM
